# Results collected from several papers.
# Every numbered part comes from another study and shows a few of its results, in no order. Positions count from the first letter of the parent shown.

# Block 1
# Target: CCNA1, cyclin fold, Cln2 fusion (human)
# Method: yeast growth competition, sequencing
# Sample: yeast
# Setting: weak parent motif
# Reference: not given
# Direction: higher = stronger binding
# Parent: INSM1 docking peptide (human); PKAIRKLHFEDEV
Change,normalised enrichment score
PKAIQKLHFEDEV [R5Q],0.156
PKAIRKEHFEDEV [L7E],0.153
PKMIRKLHFEDEV [A3M],0.185
PKAIRRLHFEDEV [K6R],0.848

# Block 2
# Target: Sal-like protein 4, full length isoform B (SALL4, Homo sapiens, UniProt Q9UJQ4-2, residues 1-616)
# Method: universal PBM
# Form: double-stranded DNA, one strand shown
# Sample: in vitro
# Concentration: not given
# Setting: 8-mer, flanks averaged, mean of replicates
# Direction: higher = stronger binding
# Residues (chain): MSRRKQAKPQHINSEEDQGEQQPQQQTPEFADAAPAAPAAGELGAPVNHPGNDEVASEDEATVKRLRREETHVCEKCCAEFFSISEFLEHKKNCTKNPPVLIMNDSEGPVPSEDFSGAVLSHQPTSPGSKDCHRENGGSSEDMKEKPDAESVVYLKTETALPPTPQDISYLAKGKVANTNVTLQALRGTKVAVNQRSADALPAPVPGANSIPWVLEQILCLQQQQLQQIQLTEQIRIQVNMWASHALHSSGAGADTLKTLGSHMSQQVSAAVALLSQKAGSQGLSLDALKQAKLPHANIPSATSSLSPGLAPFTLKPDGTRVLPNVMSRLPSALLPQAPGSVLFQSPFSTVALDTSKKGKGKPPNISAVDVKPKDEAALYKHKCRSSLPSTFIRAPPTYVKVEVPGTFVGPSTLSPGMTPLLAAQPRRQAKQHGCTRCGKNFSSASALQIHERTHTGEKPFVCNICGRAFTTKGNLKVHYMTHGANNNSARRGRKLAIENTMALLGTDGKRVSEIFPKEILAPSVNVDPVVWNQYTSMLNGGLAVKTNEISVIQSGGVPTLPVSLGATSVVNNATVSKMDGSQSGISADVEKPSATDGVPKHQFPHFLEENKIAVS
Sequence,E-score
CGCCTAGC,-0.279
CGCTTGTA,-0.0436
TGCGTCAA,0.00994
CTAGGCGC,-0.226
AAGCATAA,0.238
CATCTCTA,0.086
GAAAACCC,-0.0161

# Block 3
# Target: Max-binding protein MNT, bHLH-zipper, MAX partner unstated (MNT, Homo sapiens, UniProt Q99583, residues 220-300)
# Method: protein-binding microarray
# Form: double-stranded DNA, one strand shown
# Sample: in vitro
# Concentration: not given
# Setting: k-mer, scored over probes, only values ≥0.25
# Direction: higher = stronger binding
# Residues (chain): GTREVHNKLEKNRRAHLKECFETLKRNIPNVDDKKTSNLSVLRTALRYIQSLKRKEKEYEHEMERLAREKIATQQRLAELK
Sequence,E-score
ACGAGGGC,0.333
CGCCCCGC,0.301
CCACGGCA,0.257
CATGTTCA,0.314
AGTCATGC,0.336
CAGCACGA,0.338
TACCACGA,0.276

# Further values, each from its own experiment
Substance,target,assay,system,conditions,scale,quantity,value
"PhoQ, residues 284 288 289 292 302 303 SNGLAW","PhoP, residues 12 14 15 18 19 LYHSL (Escherichia coli, UniProt P23836)","Sort-seq, item: YFP reporter",E. coli,"PhoQ-PhoP variant library, with: 10 µM Mg2+","reference: high Mg2+ state, higher = stronger signaling",fold induction,9.15

# Excerpt of the above (block 3):
Sequence,E-score
CAGCACGA,0.338
TACCACGA,0.276
ACGAGGGC,0.333
